# Measured values of several laboratories.
# Each numbered part is a random draw from the data of one study; scales do not carry over between parts. Substitutions count along the parent as printed.

# Set 1 — method: protein binding microarray; form: double-stranded DNA, one strand shown; medium: in vitro; concentration: not given; reference: not given; direction: higher = stronger binding
# Target: Histone acetyltransferase KAT6A, winged helix 2, GST fusion (KAT6A, Homo sapiens, UniProt Q92794, residues 85-181)
# Notes: 8-mer, flanks averaged, mean of 2 arrays, mostly near background
# Construct (chain): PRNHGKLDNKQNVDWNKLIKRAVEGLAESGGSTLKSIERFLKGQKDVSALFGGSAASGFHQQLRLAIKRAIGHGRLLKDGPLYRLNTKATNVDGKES
Sequence,E-score
CCAAAGGC,0.0884
CTACAGTA,-0.275
GGAAACTA,0.047
CGAGTAAA,0.0648
CGGGAATA,0.0701
GGCCATGA,-0.000315
CGCTGCAC,0.0687
TGAATTCA,0.000715
CTTCCAGC,-0.00037
ACAATCCA,-0.0246
AGCCGACC,-0.0465
TCCGATAA,-0.204
CGCAGTTC,0.116
GAAGTGAA,0.0611
AGCGCAAA,0.16
CGTAACAG,-0.162
ACAGGGGT,-0.248
CGAGCTAA,0.0327
AGCGGACT,-0.222

# Set 2 — method: protein-binding microarray; form: double-stranded DNA, one strand shown; medium: in vitro; concentration: 250 nM; notes: 60-bp whole probe; with: salmon DNA 0.4 mg/ml; reference: random background probes; direction: higher = stronger binding; shared flanks, not repeated: GCCTAGCAC … GTCTTGATTCGCTTGACGCTGCTG
# Target: Interferon regulatory factor 7, full length, phosphomimetic (IRF7, Homo sapiens, UniProt Q92985, residues 1-503, S101K/S471D/S472D/S475D/S476D/S477D/S483D/S484D/S487D)
# Residues (chain): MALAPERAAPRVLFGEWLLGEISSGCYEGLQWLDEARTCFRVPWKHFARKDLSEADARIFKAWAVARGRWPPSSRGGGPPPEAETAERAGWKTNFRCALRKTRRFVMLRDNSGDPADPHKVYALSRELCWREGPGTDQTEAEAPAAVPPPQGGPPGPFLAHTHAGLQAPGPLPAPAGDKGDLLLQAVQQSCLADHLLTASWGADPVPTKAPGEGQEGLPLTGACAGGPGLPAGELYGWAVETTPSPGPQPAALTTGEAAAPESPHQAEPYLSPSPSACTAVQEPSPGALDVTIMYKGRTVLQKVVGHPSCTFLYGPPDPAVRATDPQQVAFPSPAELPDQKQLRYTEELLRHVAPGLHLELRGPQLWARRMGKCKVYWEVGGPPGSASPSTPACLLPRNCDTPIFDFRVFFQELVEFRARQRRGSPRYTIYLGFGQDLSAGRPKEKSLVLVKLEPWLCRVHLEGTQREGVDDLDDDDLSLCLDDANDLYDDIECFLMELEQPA
Sequence,log fluorescence
GACGGTATCGGGTTTCTGGACGTGCTA,1.56 z-score
GACGGTATCGACTTTCGGGCCGTGCTA,0.546 z-score
GACGGTATCCTACTTCTGACGTGCTAG,-0.136 z-score
TACGGACTGGACACTGGGGACGTGCTA,-0.709 z-score
GGGCCCTGCTGGGAAGTCAGGTGCTAG,-0.0548 z-score
TTAGGTATCCTTATTCTTTAGTGCTAG,0.42 z-score
TATCTTATGATATATATAATAGTGCTA,0.606 z-score
GACGAACTGAGACTGGAGATGTGCTAG,-0.145 z-score
TTAGAACTGAGTATCGATTCGTGCTAG,2.41 z-score
CTTTGTTTTTTTCTATATGCGTGCTAG,1.73 z-score
GACGGTCTTGGTCTCGGGACGTGCTAG,0.235 z-score
TTAGGTCTCGGATTGGGTTAGTGCTAG,3.16 z-score
TCATCTAAAAAGTCTCTGACTGTGCTA,0.231 z-score

# Set 3 — target: CCNA1, cyclin fold, Cln2 fusion (human); method: yeast growth competition, sequencing; medium: yeast; notes: weak parent motif; reference: not given; direction: higher = stronger binding
# Starting sequence: ORC1 docking peptide (human); PRARKRLELGNLG; partner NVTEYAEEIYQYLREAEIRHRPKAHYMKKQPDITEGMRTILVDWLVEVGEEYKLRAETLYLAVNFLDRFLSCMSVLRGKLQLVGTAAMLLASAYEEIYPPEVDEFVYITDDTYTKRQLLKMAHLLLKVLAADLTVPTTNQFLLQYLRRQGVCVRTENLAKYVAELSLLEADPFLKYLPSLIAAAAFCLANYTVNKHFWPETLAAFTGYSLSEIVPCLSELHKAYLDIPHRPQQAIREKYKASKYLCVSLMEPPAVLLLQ
Change,normalised enrichment score
K5E,0.22
N11F,0.23
A3K,0.0218
K5H,0.219
G13H,0.489
K5V,0.19
G13R,0.294
R2V,0.316
L9K,0.581
L7Y,0.32
R4S,-0.0484
N11W,0.264
R4L,0.627
G13A,0.153
R4I,0.287
R4P,0.0779
G10D,0.686
L12A,0.419

# Single results of other studies
Substance,target,test,system,setting,scale,quantity,value
"PhoQ, residues 284 288 289 292 302 303 QWGLFV","PhoP, residues 12 14 15 18 19 LWHVM (Escherichia coli, UniProt P23836)","Sort-seq, item: YFP reporter",E. coli,"PhoQ-PhoP variant library, with: 10 µM Mg2+","reference: high Mg2+ state, higher = stronger signaling",fold induction,4.06

# A few entries again (set 3):
Change,normalised enrichment score
G13R,0.294
R2V,0.316
L12A,0.419
N11W,0.264
L7Y,0.32
R4I,0.287
G10D,0.686
R4L,0.627
